Experimental data collected from several papers.
± marks the error that the study gave.

Structure (SMILES) | target or system | test | system | conditions | scale | endpoint | value
CN(CCOc1ccc(CC2SC(=O)NC2=O)cc1)c1ccccn1 (stereo not shown) | human respiratory syncytial virus | viral replication | BEAS-2B | 5 µM, 40 h |  | inhibition | 85 ± 5.8%
CCn1cc(C(=O)Nc2nccs2)c(=O)c2cc(F)c(N3CCN(C(=O)c4ccco4)CC3)cc21 | Mycolicibacterium smegmatis | microbial growth |  | 50 µM |  | inhibition | ~20%
CC[C@]1(O)C[C@H]2CN(CCc3c([nH]c4ccccc34)[C@@](C(=O)OC)(c3cc4c(cc3OC)N(C=O)[C@H]3[C@@](O)(C(=O)OC)[C@H](OC(C)=O)[C@]5(CC)C=CCN6CC[C@]43[C@@H]65)C2)C1 | human respiratory syncytial virus | viral replication | BEAS-2B | 5 µM, 40 h |  | inhibition | 79 ± 6.9%
CNCC(=O)N[C@@H](CO)C(=O)N[C@H]1[C@H](O)[C@@H](O)[C@H](n2ccc(N)nc2=O)O[C@@H]1C(N)=O | Tobacco mosaic virus | inactivation activity | host plant | 500 µg/mL |  | inhibition | 83.1%
CN[C@@](C)(C[18F])C(=O)O | MDA-MB-468 tumour model |  | host not given, lung | 2 h, tumour-bearing |  | tracer uptake | 1.1 %ID/g
N#Cc1ccc(-c2ccc(-c3ccco3)o2)c(F)c1 | Salmonella enterica | sodium azide mutagenicity | TA1535 | 10 µM, 48 h, with: sodium azide 2 µg/plate after pre-exposure |  | inhibition | 83%
CCn1cc(C(=O)Nc2cc(C)ccn2)c(=O)c2cc(F)c(N3CCN(C(=O)c4ccco4)CC3)cc21 | Mycolicibacterium smegmatis | microbial growth |  | 20 µM |  | inhibition | ~50%
C[C@H](Cn1cnc2c(N)ncnc21)OCP(=O)(O)O | human alphaherpesvirus 2 | virus production | human monocytes/macrophages | 1 µg/mL, 6 days |  | inhibition | 34%
CCn1cc(C(=O)Nc2ncccc2C)c(=O)c2cc(F)c(N3CCN(C(=O)c4ccco4)CC3)cc21 | Mycolicibacterium smegmatis | microbial growth |  | 50 µM |  | inhibition | ~100%
N#Cc1ccc(-c2ccc(-c3ccco3)o2)cc1F | Salmonella enterica | sodium azide mutagenicity | TA1535 | 10 µM, 48 h, with: sodium azide 2 µg/plate co-exposure |  | inhibition | 94%
Cn1nnc2c(C(N)=O)ncn2c1=O | human respiratory syncytial virus | viral replication | BEAS-2B | 5 µM, 40 h |  | inhibition | 96 ± 1.3%
CC1(C)[C@@H](O[C@H]2O[C@H](C(=O)N[C@@H](Cc3ccc(O)cc3)C(=O)O)[C@@H](O)[C@H](O)[C@H]2O[C@@H]2O[C@H](C(=O)N[C@@H](Cc3ccc(O)cc3)C(=O)O)[C@@H](O)[C@H](O)[C@H]2O)CC[C@]2(C)[C@H]3C(=O)C=C4[C@@H]5C[C@@](C)(C(=O)N[C@@H](Cc6ccc(O)cc6)C(=O)O)CC[C@]5(C)CC[C@@]4(C)[C@]3(C)CC[C@@H]12 | dengue virus type 2 | viral replication | Vero E6 | 10 µM, 96 h | baseline: infected untreated | inhibition | > 50%
N#Cc1ccc(-c2ccc(-c3cccs3)o2)cc1F | Salmonella enterica | sodium azide mutagenicity | TA1535 | 20 µM, 48 h, with: sodium azide 2 µg/plate co-exposure |  | inhibition | 81 ± 10.4%
CC(=O)[C@]1(O)Cc2c(O)c3c(c(O)c2[C@@H](O[C@H]2C[C@H](N)[C@H](O)[C@H](C)O2)C1)C(=O)c1ccccc1C3=O | human respiratory syncytial virus | viral replication | BEAS-2B | 5 µM, 40 h |  | inhibition | 95 ± 1.3%
N=C(N)c1ccc(-c2ccc(-c3cccs3)o2)c(F)c1 | Salmonella enterica | sodium azide mutagenicity | TA1535 | 10 µM, 48 h, with: sodium azide 2 µg/plate after pre-exposure |  | inhibition | 32%
Cc1c2oc3c(C)ccc(C(=O)N[C@@H]4C(=O)N[C@H](C(C)C)C(=O)N5CCC[C@H]5C(=O)N(C)CC(=O)N(C)[C@@H](C(C)C)C(=O)O[C@@H]4C)c3nc-2c(C(=O)N[C@@H]2C(=O)N[C@H](C(C)C)C(=O)N3CCC[C@H]3C(=O)N(C)CC(=O)N(C)[C@@H](C(C)C)C(=O)O[C@@H]2C)c(N)c1=O | human respiratory syncytial virus | viral replication | BEAS-2B | 5 µM, 40 h |  | inhibition | 52 ± 9.6%
N=C(N)c1ccc(-c2ccc(-c3ccco3)o2)c(F)c1 | Salmonella enterica | sodium azide mutagenicity | TA1535 | 20 µM, 48 h, with: sodium azide 2 µg/plate after pre-exposure |  | inhibition | 106%
CCCCCNC(=O)c1cn(CC)c2cc(N3CCN(C(=O)c4ccco4)CC3)c(F)cc2c1=O | Mycolicibacterium smegmatis | microbial growth |  | 50 µM |  | inhibition | ~50%
COC(=O)C[C@](O)(CCCC(C)(C)O)C(=O)O[C@@H]1C(OC)=C[C@]23CCCN2CCc2cc4c(cc2[C@H]13)OCO4 | human respiratory syncytial virus | viral replication | BEAS-2B | 5 µM, 40 h |  | inhibition | 98 ± 0.5%

A few entries again:
Structure (SMILES) | target or system | test | system | conditions | scale | endpoint | value
CCn1cc(C(=O)Nc2ncccc2C)c(=O)c2cc(F)c(N3CCN(C(=O)c4ccco4)CC3)cc21 | Mycolicibacterium smegmatis | microbial growth |  | 50 µM |  | inhibition | ~100%
Cn1nnc2c(C(N)=O)ncn2c1=O | human respiratory syncytial virus | viral replication | BEAS-2B | 5 µM, 40 h |  | inhibition | 96 ± 1.3%
CCn1cc(C(=O)Nc2nccs2)c(=O)c2cc(F)c(N3CCN(C(=O)c4ccco4)CC3)cc21 | Mycolicibacterium smegmatis | microbial growth |  | 50 µM |  | inhibition | ~20%
